# Measurements of several laboratories.
# Parts stem from different laboratories: compare values within a part only.
# Chain of UniProt O15146 (whole entry, looked up): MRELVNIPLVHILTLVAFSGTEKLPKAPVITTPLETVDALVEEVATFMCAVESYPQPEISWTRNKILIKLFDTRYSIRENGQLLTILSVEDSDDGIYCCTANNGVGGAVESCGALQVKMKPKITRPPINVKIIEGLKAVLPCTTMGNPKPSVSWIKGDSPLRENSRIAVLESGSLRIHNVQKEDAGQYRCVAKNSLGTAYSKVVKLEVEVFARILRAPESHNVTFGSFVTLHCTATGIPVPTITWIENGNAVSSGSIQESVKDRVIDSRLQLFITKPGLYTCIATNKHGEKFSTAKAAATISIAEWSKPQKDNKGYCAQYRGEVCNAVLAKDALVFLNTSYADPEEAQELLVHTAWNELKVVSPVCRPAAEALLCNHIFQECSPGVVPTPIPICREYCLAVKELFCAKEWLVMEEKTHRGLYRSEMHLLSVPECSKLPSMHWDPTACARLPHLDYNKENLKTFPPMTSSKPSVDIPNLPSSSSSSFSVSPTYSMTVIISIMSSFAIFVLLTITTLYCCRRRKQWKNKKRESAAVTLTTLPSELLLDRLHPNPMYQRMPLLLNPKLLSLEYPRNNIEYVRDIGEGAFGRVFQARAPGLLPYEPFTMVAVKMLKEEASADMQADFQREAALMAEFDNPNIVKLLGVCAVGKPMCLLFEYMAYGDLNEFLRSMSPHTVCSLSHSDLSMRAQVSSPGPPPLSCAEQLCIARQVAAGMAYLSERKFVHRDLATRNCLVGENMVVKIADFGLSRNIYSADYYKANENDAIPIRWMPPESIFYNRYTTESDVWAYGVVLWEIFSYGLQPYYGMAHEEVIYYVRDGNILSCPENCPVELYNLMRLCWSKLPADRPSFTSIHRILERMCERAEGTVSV
# Chain of UniProt O60674 (whole entry, looked up): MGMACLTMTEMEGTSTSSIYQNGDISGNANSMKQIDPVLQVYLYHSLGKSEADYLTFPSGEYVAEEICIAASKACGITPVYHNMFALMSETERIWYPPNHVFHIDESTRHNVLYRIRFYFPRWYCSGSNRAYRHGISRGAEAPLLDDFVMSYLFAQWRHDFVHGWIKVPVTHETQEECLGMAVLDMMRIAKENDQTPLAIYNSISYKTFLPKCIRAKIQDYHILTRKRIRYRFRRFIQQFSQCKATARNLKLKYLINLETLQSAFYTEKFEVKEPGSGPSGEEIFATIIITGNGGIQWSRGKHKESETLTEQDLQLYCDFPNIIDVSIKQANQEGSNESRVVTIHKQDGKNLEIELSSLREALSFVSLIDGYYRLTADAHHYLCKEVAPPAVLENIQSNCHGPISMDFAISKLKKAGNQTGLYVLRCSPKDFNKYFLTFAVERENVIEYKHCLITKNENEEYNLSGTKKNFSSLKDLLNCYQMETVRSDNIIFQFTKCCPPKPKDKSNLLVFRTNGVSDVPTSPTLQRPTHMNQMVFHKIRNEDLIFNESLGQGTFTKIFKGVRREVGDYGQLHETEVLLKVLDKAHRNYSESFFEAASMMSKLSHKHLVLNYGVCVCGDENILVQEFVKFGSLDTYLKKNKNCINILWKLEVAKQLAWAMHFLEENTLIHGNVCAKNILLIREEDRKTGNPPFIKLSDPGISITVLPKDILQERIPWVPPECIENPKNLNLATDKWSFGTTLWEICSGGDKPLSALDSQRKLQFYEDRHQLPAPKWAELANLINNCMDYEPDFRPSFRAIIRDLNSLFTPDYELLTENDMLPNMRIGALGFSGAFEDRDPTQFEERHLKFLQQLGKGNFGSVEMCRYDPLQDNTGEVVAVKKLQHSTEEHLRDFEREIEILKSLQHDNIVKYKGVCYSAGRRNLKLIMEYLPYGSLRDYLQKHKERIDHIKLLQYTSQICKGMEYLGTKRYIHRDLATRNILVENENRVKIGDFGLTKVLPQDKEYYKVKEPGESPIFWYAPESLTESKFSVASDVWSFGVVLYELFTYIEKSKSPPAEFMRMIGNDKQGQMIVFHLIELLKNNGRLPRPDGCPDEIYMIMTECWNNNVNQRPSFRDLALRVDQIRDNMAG
# Chain of UniProt Q86Y07 (whole entry, looked up): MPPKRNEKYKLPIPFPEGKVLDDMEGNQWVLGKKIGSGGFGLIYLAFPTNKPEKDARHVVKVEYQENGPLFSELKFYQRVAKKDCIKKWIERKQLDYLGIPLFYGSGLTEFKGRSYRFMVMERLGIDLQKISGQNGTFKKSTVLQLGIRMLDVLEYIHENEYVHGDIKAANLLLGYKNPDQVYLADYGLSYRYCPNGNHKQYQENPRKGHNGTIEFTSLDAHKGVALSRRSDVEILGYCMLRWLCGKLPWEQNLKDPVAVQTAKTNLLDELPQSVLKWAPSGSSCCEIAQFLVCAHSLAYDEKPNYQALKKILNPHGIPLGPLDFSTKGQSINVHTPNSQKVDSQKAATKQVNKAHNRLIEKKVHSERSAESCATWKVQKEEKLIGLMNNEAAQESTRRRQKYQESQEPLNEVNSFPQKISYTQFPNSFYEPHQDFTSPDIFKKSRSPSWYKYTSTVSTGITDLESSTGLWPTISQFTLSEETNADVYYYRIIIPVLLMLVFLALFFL
# Chain of UniProt P08069 (whole entry, looked up): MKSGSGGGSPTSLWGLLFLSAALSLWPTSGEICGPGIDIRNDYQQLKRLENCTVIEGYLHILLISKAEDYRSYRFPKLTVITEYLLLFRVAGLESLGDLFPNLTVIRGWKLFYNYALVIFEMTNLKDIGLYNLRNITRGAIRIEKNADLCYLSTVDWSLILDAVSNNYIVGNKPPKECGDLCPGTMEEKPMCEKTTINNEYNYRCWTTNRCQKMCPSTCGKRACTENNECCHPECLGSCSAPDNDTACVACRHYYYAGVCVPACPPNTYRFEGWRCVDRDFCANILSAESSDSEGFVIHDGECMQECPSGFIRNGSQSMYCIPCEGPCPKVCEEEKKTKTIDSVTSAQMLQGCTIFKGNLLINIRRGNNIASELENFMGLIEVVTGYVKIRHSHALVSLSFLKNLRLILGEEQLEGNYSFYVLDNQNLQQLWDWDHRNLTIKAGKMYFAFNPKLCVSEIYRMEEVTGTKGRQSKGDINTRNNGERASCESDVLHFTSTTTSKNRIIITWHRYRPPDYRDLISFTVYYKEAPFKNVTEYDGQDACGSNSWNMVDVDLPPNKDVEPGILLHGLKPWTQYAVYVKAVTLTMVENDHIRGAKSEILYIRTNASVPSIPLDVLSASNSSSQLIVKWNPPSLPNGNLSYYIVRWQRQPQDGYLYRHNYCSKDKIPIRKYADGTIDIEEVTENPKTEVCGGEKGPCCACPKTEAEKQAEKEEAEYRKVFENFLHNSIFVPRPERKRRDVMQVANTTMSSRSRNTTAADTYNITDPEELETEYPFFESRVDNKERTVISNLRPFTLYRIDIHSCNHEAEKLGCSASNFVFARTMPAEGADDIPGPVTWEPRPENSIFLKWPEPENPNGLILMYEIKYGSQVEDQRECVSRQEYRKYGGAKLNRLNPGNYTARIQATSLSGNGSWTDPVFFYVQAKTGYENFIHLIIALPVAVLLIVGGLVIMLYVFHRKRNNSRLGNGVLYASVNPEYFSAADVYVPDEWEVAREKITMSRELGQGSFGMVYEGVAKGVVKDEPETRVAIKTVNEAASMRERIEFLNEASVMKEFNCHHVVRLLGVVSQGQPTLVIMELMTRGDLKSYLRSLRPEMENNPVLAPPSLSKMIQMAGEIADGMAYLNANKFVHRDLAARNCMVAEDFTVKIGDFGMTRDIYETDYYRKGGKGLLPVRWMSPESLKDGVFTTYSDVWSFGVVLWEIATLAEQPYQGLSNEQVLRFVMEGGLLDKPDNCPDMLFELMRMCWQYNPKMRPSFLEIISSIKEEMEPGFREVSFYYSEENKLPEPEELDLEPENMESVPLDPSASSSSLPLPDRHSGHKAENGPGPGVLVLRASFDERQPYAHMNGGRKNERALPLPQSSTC
# Chain of UniProt Q16566 (whole entry, looked up): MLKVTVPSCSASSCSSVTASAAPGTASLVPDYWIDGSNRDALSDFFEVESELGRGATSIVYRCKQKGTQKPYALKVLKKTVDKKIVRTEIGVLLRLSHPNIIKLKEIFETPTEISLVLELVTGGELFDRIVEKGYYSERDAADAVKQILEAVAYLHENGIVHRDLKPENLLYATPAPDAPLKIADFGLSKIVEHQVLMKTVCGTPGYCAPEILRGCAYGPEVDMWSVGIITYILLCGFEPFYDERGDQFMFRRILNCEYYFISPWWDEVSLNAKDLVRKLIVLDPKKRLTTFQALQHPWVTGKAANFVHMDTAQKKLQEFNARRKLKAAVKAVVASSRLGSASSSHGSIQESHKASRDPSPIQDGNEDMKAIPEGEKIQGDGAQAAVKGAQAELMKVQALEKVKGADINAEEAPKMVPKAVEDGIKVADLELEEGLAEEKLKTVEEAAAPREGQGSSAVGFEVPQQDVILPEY

# Block 1
# SMILES: COc1ccc2[nH]c3c4[nH]c5ccc(OC)cc5c4c4c(c3c2c1)C(=O)NC4=O
# Tested at: 1 µM
target,assay,setting,how to read,remaining binding [%]
"PIK3CG (Homo sapiens, UniProt P48736)",competitive binding panel,,relative to: vehicle,87
"CAMK4 (Homo sapiens, UniProt Q16566)",competitive binding panel,,relative to: vehicle,98
"YES1 (Homo sapiens, UniProt P07947)",competitive binding,YES,,73
"IGF1R (Homo sapiens, UniProt P08069)",competitive binding panel,,relative to: vehicle,97
"JAK2 (Homo sapiens, UniProt O60674)",competitive binding panel,JH1 catalytic domain,relative to: vehicle,84
"VRK2 (Homo sapiens, UniProt Q86Y07)",competitive binding panel,,relative to: vehicle,98

# Block 2
# Target: Calcium/calmodulin-dependent protein kinase kinase 2 (CAMKK2, Homo sapiens, UniProt Q96RR4)
# Chain of UniProt Q96RR4 (whole entry, looked up): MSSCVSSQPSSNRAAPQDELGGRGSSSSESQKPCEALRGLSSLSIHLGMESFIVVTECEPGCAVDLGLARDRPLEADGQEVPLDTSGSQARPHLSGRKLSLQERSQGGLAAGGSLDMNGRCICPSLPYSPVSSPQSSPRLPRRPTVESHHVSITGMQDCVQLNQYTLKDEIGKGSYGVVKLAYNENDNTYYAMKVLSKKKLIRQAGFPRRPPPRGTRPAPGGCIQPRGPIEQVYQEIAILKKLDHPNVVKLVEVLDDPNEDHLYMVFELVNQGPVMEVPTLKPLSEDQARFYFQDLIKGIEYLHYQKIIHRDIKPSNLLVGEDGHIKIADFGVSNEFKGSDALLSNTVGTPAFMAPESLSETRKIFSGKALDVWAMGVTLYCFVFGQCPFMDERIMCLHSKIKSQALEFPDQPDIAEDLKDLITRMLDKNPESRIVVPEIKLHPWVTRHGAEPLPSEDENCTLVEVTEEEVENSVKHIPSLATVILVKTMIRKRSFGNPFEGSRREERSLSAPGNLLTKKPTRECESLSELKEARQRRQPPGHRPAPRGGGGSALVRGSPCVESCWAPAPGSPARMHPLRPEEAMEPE
# Observed: enzyme activity
# Mode: inhibitor
# Tested at: 0.5 µM
# Relative to: control
SMILES,remaining activity [%]
Cc1ccc(NC(=O)c2ccc(CN3CCN(C)CC3)cc2)cc1Nc1nc(-c2cccnc2)cs1,101
NCCNc1ncc(C(N)=O)c(Nc2cccc(C(F)(F)F)c2)n1,96.2
Nc1[nH]nc2nc3ccccc3nc12,98.8
Cn1c2ccccc2c2c3c(c4c5ccccc5n(CCC#N)c4c21)CNC3=O,3.88
Nc1ncnc2n[nH]c(Nc3ccc(F)cc3)c12,83.6
Nc1ccc2ncnc(NCCc3ccc(Oc4ccccc4)cc3)c2c1,92.6
CC(C)[C@H](CO)Nc1nc(Nc2cc(N)cc(Cl)c2)c2ncn(C(C)C)c2n1,33.2
N#CC(C#N)=C(N)/C(C#N)=C/c1ccc(O)cc1,91.6
COc1ccc(C(=O)Nc2sc3c(c2C(N)=O)CCCC3)cc1OC,96.9
COc1cc2nccc(Oc3ccc(NC(=S)NC(=O)c4ccccc4C)cc3)c2cc1OC,75
O=C1NC(=O)C(c2cn(CCCn3ccnc3)c3ccccc23)=C1Nc1ccccc1,51.3
COc1cc2ncnc(Nc3ccc(F)c(Cl)c3)c2cc1OCCCN1CCOCC1,103
O=S(=O)(c1cccc2cnccc12)N1CCCNCC1,95.9
COc1ccc(OC)c2c(=S)c3ccccc3[nH]c12,108

# Block 3
# Structure (SMILES): COCCOc1nc(-c2ccc(Cl)nc2)nc2c1CN(C(=O)c1ncn3ccccc13)CC2
# Observed: cell-free assay
# Method: competition with immobilised ligand
# Tested at: 0.1 µM
target,remaining binding
"CDKL5 (Homo sapiens, UniProt O76039)",100%
"MUSK (Homo sapiens, UniProt O15146)",100%
"PIP4K2B (Homo sapiens, UniProt P78356)",59%
"KIT (Homo sapiens, UniProt P10721)",100%
"MAP4K4 (Homo sapiens, UniProt O95819)",73%
"FLT3 (Homo sapiens, UniProt P36888, N841I)",100%

# Block 4
# Cell line: mouse MPNST tumor cells
# Method: high-content immunofluorescence imaging
# Refers to: nuclear SOX9
# Tested at: 10 µM
# Time: 12 h
# Setting: mean of 2 replicates
# Relative to: DMSO control
# Reading: higher = more nuclear SOX9
Structure (SMILES),nuclear SOX9 intensity
C=CC1=C(C(=O)O)N2C(=O)[C@@H](NC(=O)/C(=N\O)c3csc(N)n3)[C@H]2SC1,96.4 % of DMSO
CC(C)(S)C(N)C(=O)O (racemic),113 % of DMSO
Nc1ncnc(Nc2ccc(OCc3ccccc3)c(Cl)c2)c1/C=N/OCCN1CCOCC1,184 % of DMSO
c1ccc(-c2cnn3cc(-c4ccc(OCCN5CCOCC5)cc4)cnc23)cc1,127 % of DMSO
NS(=O)(=O)c1cc2c(cc1C(F)(F)F)NC(Cc1ccccc1)NS2(=O)=O (stereo not shown),107 % of DMSO

# Repeated from above (block 2):
SMILES,remaining activity [%]
Nc1ncnc2n[nH]c(Nc3ccc(F)cc3)c12,83.6
Nc1ccc2ncnc(NCCc3ccc(Oc4ccccc4)cc3)c2c1,92.6
CC(C)[C@H](CO)Nc1nc(Nc2cc(N)cc(Cl)c2)c2ncn(C(C)C)c2n1,33.2
N#CC(C#N)=C(N)/C(C#N)=C/c1ccc(O)cc1,91.6
